{"data": "Results from different studies", "note": "Numbered parts are unrelated; each lists some results of a single study. Changes are numbered by the printed parent chain."}
{"data": "Block 1", "target": "Interferon regulatory factor 7, full length, phosphomimetic (IRF7, Homo sapiens, UniProt Q92985, residues 1-503, S471D/S472D/S475D/S476D/S477D/S483D/S484D/S487D)", "method": "protein-binding microarray", "form": "double-stranded DNA, one strand shown", "matrix": "in vitro", "concentration": "2200 nM top", "setting": "60-bp whole probe", "together with": "salmon DNA 0.4 mg/ml", "relative to": "random background probes", "direction": "higher = stronger binding", "constant ends, left off below": "GCCTAGCAC … GTCTTGATTCGCTTGACGCTGCTG", "Construct (chain)": "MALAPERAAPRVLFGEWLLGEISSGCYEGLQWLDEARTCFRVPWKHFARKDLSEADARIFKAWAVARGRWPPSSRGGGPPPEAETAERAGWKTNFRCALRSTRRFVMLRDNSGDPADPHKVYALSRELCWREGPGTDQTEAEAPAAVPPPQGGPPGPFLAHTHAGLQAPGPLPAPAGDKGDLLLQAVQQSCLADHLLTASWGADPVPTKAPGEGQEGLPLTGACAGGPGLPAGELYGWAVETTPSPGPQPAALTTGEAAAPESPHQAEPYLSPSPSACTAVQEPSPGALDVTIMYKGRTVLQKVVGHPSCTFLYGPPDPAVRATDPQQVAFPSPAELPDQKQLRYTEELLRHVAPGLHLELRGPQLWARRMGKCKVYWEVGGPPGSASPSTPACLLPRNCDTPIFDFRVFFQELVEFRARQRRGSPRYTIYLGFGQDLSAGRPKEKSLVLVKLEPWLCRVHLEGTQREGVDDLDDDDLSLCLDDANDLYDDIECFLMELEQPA"}
{"Strand": "GACGGTATCCTTATCTTGACGTGCTAG", "fitted relative affinity [z-score]": 1.09}
{"Strand": "TTCATTTTTTTTTTCATCATGTGCTAG", "fitted relative affinity [z-score]": 1.99}
{"Strand": "TTAGGTATCGACTATCGGTTGGTGCTA", "fitted relative affinity [z-score]": 0.619}
{"Strand": "CAGTAGATGGCGCCTGAGAGGTGCTAG", "fitted relative affinity [z-score]": -0.131}
{"Strand": "CACTTTTCCTACATCAGCTGGTGCTAG", "fitted relative affinity [z-score]": 2.76}
{"Strand": "TACTCTACAGGGTTTCACTTTGTGCTA", "fitted relative affinity [z-score]": 2.65}
{"Strand": "TTAGGTTTCTACACTGGGTTAGTGCTA", "fitted relative affinity [z-score]": 0.744}
{"Strand": "TCAGTCTTCACTCTGCTACTGTGCTAG", "fitted relative affinity [z-score]": 1.58}
{"data": "Block 2", "target": "RNA binding protein fox-1 homolog 2, RRM domain, GST-SBP tag (RBFOX2, Homo sapiens, UniProt O43251-10, residues 100-194)", "method": "RNA Bind-n-Seq", "form": "RNA", "matrix": "in vitro", "concentration": "365 nM", "setting": "natural RNA segment, single round, ends assumed", "relative to": "no-protein control", "direction": "higher = stronger binding", "constant ends, left off below": "GGGAGUUCUACAGUCCGACGAUC … UGGAAUUCUCGGGUGCCAA", "Target sequence (chain)": "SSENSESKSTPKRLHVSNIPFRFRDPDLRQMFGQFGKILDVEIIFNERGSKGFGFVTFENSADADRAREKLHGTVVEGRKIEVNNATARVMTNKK"}
{"Strand": "CUCAUGGGGCGGCUCAUGAGGAGCUGGGGGCAGGGUAGAAUGGGACCGAGCAGGAACAGAGGCUGCAGUUGGGCUGGCUGACUGAGGGUGCCUGGCUGCCCAGCCUGCGG", "RBNS enrichment (R)": 0.819}
{"Strand": "UCAGCCCCCUCAAGAAAGUGUGGAACCUGCAGGGCCUCUAAUGUGCUGGGCCCCAGUCUCCAAGGGCGAGAAUGGACCCUGAUGGACUUGGACAUGGAGCUGUCCUUGGG", "RBNS enrichment (R)": 0.961}
{"Strand": "AAUACUAGAUGCAAGUGUUUCCAAAGCAAAAAAGGUGCAAUUUUAAAGAAUACAUAGCCAAAGCAAUGUUACUACCCAUCAUACUGUUUAAAAAUGGAUAGAAAAUAAAA", "RBNS enrichment (R)": 0.404}
{"Strand": "CGCAGCUCUUCUGCCUGGUUUUCGGAGGCCAGGCUGCUGGGAAGCUUCCGUGUUCCUGUCAGUCCUUCCUUCAAGAAGCCGGGGAACUCAGGCAGACUCAUCUCCGCAGA", "RBNS enrichment (R)": 0.23}
{"Strand": "AAGACCGCACUGGAGUUGGGUGUGUUCUGAGUUUCUGUCCAGAUGUGAUUUCAGCAGUCAUGGUAUUCCAAGUGUGUGUGUGGAGGUAGAUAAGUGGGACGGUAAAGACA", "RBNS enrichment (R)": 1.25}
{"Strand": "AUUUUAUUGGUGAUGAUGAAUGGGAAUGAAAUCAGGGGGCUGUCUACUAGAGCCUGGAAUAAAUAUGCUGCUUUGUGGAUUUUUAAGCCCUUCUCUUCUGUUUCCUUGAG", "RBNS enrichment (R)": 0.512}
{"Strand": "UCACCUCUCUCUGAGGACAGAGCUUGAAGCCUCCACACCAGCUGCUGCUGGAGAUUCAAAGCCCAACUGUGGGUCCGAGAGGGAAGCUGGCUGGGCUGGCUGAAGAAUGA", "RBNS enrichment (R)": 1.22}
{"Strand": "CUCAGUUCCUUCAUUCAGAUGGUUGGGUACGUGCUUGUGGCUGAGGAAGGGCGGGUGGUGUGGACAGUGUGUCAGGAGUGGUGUCACACGUGUCACACUGUUUGGAGGGG", "RBNS enrichment (R)": 3.14}
{"data": "Block 3", "target": "CCNF, cyclin fold, Cln2 fusion (human)", "method": "yeast growth competition, sequencing", "matrix": "yeast", "setting": "strong parent motif", "relative to": "not given", "direction": "higher = stronger binding", "parent": "GMNC docking peptide (human); KNAKRNLSSEFAN"}
{"Change": "A12D", "normalised enrichment score": 0.858}
{"Change": "N6G", "normalised enrichment score": 0.582}
{"Change": "N6A", "normalised enrichment score": 0.605}
{"Change": "N2C", "normalised enrichment score": 0.965}
{"Change": "F11I", "normalised enrichment score": 0.166}
{"Change": "F11R", "normalised enrichment score": 0.708}
{"Change": "L7H", "normalised enrichment score": 0.375}
{"Change": "A12C", "normalised enrichment score": 0.725}
{"data": "Further values, each from its own experiment", "parent": "PafA, mature enzyme, eGFP fusion (Elizabethkingia meningoseptica, UniProt Q9KJX5); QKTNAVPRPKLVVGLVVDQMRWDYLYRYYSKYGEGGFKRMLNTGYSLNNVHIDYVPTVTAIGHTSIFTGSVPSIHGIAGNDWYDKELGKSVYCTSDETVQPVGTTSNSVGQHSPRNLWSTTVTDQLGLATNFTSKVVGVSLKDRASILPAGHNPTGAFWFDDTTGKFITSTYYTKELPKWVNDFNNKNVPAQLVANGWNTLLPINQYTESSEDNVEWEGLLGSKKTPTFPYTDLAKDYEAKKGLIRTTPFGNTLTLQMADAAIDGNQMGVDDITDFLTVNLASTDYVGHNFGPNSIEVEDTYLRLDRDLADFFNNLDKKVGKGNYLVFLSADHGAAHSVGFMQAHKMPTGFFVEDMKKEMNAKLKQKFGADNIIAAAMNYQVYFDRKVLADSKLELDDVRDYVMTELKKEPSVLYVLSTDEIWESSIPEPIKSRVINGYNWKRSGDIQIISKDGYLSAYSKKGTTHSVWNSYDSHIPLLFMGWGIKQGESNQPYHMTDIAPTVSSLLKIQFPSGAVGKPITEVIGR"}
{"Change": "A376G", "target": "inorganic phosphate, free oxyanion", "assay": "microfluidic competitive inhibition", "test system": "in vitro, cell-free expressed", "conditions": "not given, derived from inhibition constants, unchanged parent 615000 nM", "how to read": "lower = stronger binding", "measurement": "phosphate dissociation constant", "result": "485 µM"}
{"note": "For quick reference, copied from above (block 2):"}
{"Strand": "UCACCUCUCUCUGAGGACAGAGCUUGAAGCCUCCACACCAGCUGCUGCUGGAGAUUCAAAGCCCAACUGUGGGUCCGAGAGGGAAGCUGGCUGGGCUGGCUGAAGAAUGA", "RBNS enrichment (R)": 1.22}
{"Strand": "CUCAGUUCCUUCAUUCAGAUGGUUGGGUACGUGCUUGUGGCUGAGGAAGGGCGGGUGGUGUGGACAGUGUGUCAGGAGUGGUGUCACACGUGUCACACUGUUUGGAGGGG", "RBNS enrichment (R)": 3.14}
